Assay results gathered from unrelated publications.
pIC50: −log10 of the molar value.

CCOC(=O)C(NC(=O)CN1C(=O)/C(=C/c2ccc([N+](=O)[O-])cc2)SC1=S)C(C)C (stereo not drawn)
pIC50 (Leishmania major; parasite growth; 24 h, intracellular, amastigote): < 5.00

Cc1cc(N2CC[C@@](C#N)(C3(C)CC3)C2=O)cc(C(=O)NCc2cc(F)cc(-c3cnn(C)c3)c2)n1
pIC50 (Plasmodium falciparum; parasite growth; liver stage): 8.05

CCOC(=O)C(NC(=O)CN1C(=O)/C(=C/c2ccc3c(c2)OCO3)SC1=S)C(C)C (stereo not drawn)
pIC50 (Leishmania major; parasite growth; 72 h, intracellular, amastigote): < 5.00

O=C1Nc2ccc(Cl)cc2C1=Cc1ccc(-c2cccc(C(=O)NCC3CCNCC3)c2)o1 (mixture of isomers)
pIC50 (Trichuris muris; adult worm motility; 24 h): 4.38

Cc1ncc([N+](=O)[O-])n1CCOCc1nnc(SCC(=O)c2ccc(F)cc2)o1
pIC50 (Giardia duodenalis; parasite growth): 5.88

COCCNC(=O)c1[nH]c2cc(C)sc2c1CN(C)C
pIC50 (Giardia duodenalis; parasite growth; 48 h): < 5.00

CCOC(=O)C(CC)NC(=O)CN1C(=O)S/C(=C\c2ccc([N+](=O)[O-])cc2)C1=O (stereo not drawn)
pIC50 (Leishmania major; parasite growth, resazurin; promastigote): < 4.00

Cc1cc2[nH]c(C(=O)Nc3cc(F)ccc3Cl)c(CN(C)C)c2s1
pIC50 (Giardia duodenalis; parasite growth; 48 h): 5.24

Cc1ncc([N+](=O)[O-])n1CCOCc1nnc(SCC(=O)c2ccc(Cl)cc2)o1
pIC50 (Giardia duodenalis; parasite growth): 5.67

Cc1cc2[nH]c(C(=O)NCCN(C)C)c(CN3CCCCC3)c2s1
pIC50 (Giardia duodenalis; parasite growth; 48 h): < 5.00

CCOC(=O)CNC(=O)CN1C(=O)S/C(=C\c2ccc(C)cc2)C1=O
pIC50 (Leishmania major; parasite growth; 72 h, intracellular, amastigote): < 5.00

Cc1cc2[nH]c(C(=O)NC3CCCC3)c(CN3CCCCC3)c2s1
pIC50 (Giardia duodenalis; parasite growth; 48 h): < 5.00

Cc1ncc([N+](=O)[O-])n1CCOCc1nnc(SCC(=O)c2ccc(O)cc2)o1
pIC50 (Giardia duodenalis; parasite growth): 5.65

Cc1cc2[nH]c(C(=O)Nc3ccccc3)c(CN3CCCCC3)c2s1
pIC50 (Giardia duodenalis; parasite growth; 48 h): < 5.00

CCOC(=O)C(C)NC(=O)CN1C(=O)S/C(=C\c2ccc(F)cc2)C1=O (stereo not drawn)
pIC50 (Leishmania major; parasite growth, resazurin; promastigote): < 4.00

Excerpt of the above:
Cc1ncc([N+](=O)[O-])n1CCOCc1nnc(SCC(=O)c2ccc(Cl)cc2)o1
pIC50 (Giardia duodenalis; parasite growth): 5.67
